{"data": "Measured values from different studies", "note": "Values joined by “and” are separate records of one study, mostly repeats; a detail may differ. ± marks the error that the study gave."}
{"SMILES": "Cc1ccc2[nH]c3c(c2c1)CCCC3NCCCCc1ccccc1 (stereo not drawn)", "target or system": "A549", "setting": "50 µM, 23 h", "endpoint": "non-viable cells", "value": "18.1 ± 15.2%"}
{"SMILES": "Oc1ccc(C(c2ccc(O)cc2)(C(F)(F)F)C(F)(F)F)cc1", "target or system": "HepG2 spheroids", "assay": "annexin V-FITC/PI flow cytometry", "setting": "0.10 µM, 96 h", "endpoint": "necrotic cells", "value": "52.6 ± 9.63%"}
{"SMILES": "CC(C)C[C@@H](N)C(=O)N[C@H](CC(C)C)C(=O)N[C@H](Cc1ccccc1)C(=O)N[C@H](Cc1ccccc1)C(N)=O", "target or system": "NGF-differentiated PC-12 neurons", "setting": "20 µM, 24 h", "scale": "reference: untreated", "endpoint": "viability", "value": "57.4%"}
{"SMILES": "CN1CCN(c2ccc(OC(F)(F)F)c(Nc3ncc4c(n3)-c3c(c(C(N)=O)nn3CCO)CC4)c2)CC1", "target or system": "human coronavirus OC43", "assay": "virus-induced cell killing", "system": "MRC-5", "setting": "maximum over 10 doses", "endpoint": "maximum inhibition", "value": "0%"}
{"SMILES": "COCCCNC(=O)C1CCN(Cc2cc3ccccc3n2Cc2cccc(Cl)c2)CC1", "target or system": "Vero-E6", "assay": "CellTiter-Glo ATP", "setting": "72 h, retest 8-point duplicates", "scale": "reference: DMSO 0%, hyamine -100%, more negative, more toxic", "endpoint": "maximum response", "value": "-9.06%"}
{"SMILES": "CCc1nnc(Nc2ccnc3ccc(-c4ccc(S(=O)(=O)N5CCOCC5)cc4)cc23)s1", "target or system": "NIH 3T3", "assay": "cytotoxicity, PrestoBlue", "setting": "96 h, 2% FBS", "endpoint": "TC50", "value": "> 20 µM"}
{"SMILES": "CC(C)C[C@@H](N)C(=O)N[C@H](CC(C)C)C(=O)N[C@H](Cc1ccccc1)C(=O)N[C@H](Cc1ccccc1)C(=O)N[C@H](C)C(=O)N[C@H](CCC(=O)O)C(N)=O", "target or system": "NGF-differentiated PC-12 neurons", "setting": "40 µM, 24 h", "scale": "reference: untreated", "endpoint": "viability", "value": "97.2%"}
{"SMILES": "O=S(=O)(c1ccc(O)cc1)c1ccc(O)cc1", "target or system": "HepG2 spheroids, dissociated", "assay": "annexin V-FITC/PI flow cytometry", "setting": "1 µM, 24 h", "endpoint": "late apoptotic cells", "value": "15.7 ± 10.5%"}
{"SMILES": "CN1CCCN(S(=O)(=O)c2ccc(-c3ccc4c(Nc5ccc(OCc6cccc(F)c6)c(Cl)c5)nncc4c3)cc2)CC1", "target or system": "NIH 3T3", "assay": "PrestoBlue", "system": "2% FBS medium", "setting": "96 h", "endpoint": "TC50", "value": "44 µM"}
{"SMILES": "CN(C)N=O", "target or system": "HepaRG", "assay": "micronucleus formation", "endpoint": "lowest effective concentration", "value": "1600 µM"}
{"SMILES": "CC(C)C[C@@H](NC(=O)[C@H](N)CCCCN)C(=O)N1CCC[C@@H]1C(=O)N[C@H](Cc1ccccc1)C(=O)N[C@H](Cc1ccccc1)C(=O)N[C@H](C)C(=O)N[C@H](CCC(=O)O)C(N)=O", "target or system": "NGF-differentiated PC-12 neurons", "setting": "80 µM, 24 h", "scale": "reference: untreated", "endpoint": "viability", "value": "85.1%"}
{"SMILES": "CN(CC[C@H](Oc1cccc2ccccc12)c1cccs1)N=O", "target or system": "TK6", "setting": "1.25 µM, 4 h, together with: hamster liver S9", "scale": "reference: vehicle", "endpoint": "relative survival", "value": "60%"}
{"SMILES": "CCn1c2ccccc2c2cc(CN3CCN(Cc4cccc(Cl)c4)CC3)ccc21", "target or system": "Vero-E6", "assay": "CellTiter-Glo ATP", "setting": "concentration not given, 72 h, second round 5-point", "scale": "reference: DMSO 0%, hyamine -100%, more negative, more toxic", "endpoint": "cytotoxicity efficacy", "value": "0%"}
{"SMILES": "O=S(=O)(c1ccc(-c2ccc3nccc(Nc4cccnc4)c3c2)cc1)N1CCOCC1", "target or system": "NIH 3T3", "assay": "cytotoxicity, PrestoBlue", "setting": "96 h, 2% FBS", "endpoint": "TC50", "value": "> 20 µM"}
{"SMILES": "C=CC(=O)Nc1ccccc1CN(C(=O)Nc1cccc(C(F)(F)F)c1)C1CCN(C(C)CCC)CC1 (stereo not drawn)", "target or system": "HCC95 cells", "assay": "CellTiter-Glo", "endpoint": "LD50", "value": "36.4 µM"}
{"SMILES": "Cc1cc(C(C)(C)c2ccc(O)c(C)c2)ccc1O", "target or system": "HepG2 spheroids", "assay": "annexin V-FITC/PI flow cytometry", "setting": "10 µM, 24 h", "endpoint": "late apoptotic cells", "value": "9 ± 2.55%"}
{"SMILES": "C[C@@H]1O[C@@H](O[C@H]2C[C@@H](O)[C@]3(CO)[C@H]4[C@H](O)C[C@]5(C)[C@@H](C6=CC(=O)OC6)CC[C@]5(O)[C@@H]4CC[C@]3(O)C2)[C@H](O)[C@H](O)[C@H]1O", "target or system": "SUP-T1", "assay": "ATP content", "setting": "25 µM, 6 h", "endpoint": "cytotoxicity", "value": "not toxic"}
{"SMILES": "Cc1cc(-c2nn3c(Cn4c(C)nc5ccccc54)nnc3s2)no1", "target or system": "HEp-2", "assay": "cytotoxicity", "endpoint": "CC50", "value": "59 µM"}
{"SMILES": "CC(C)C[C@@H](N)C(=O)N1CCC[C@@H]1C(=O)N[C@H](Cc1ccccc1)C(=O)N[C@H](Cc1ccccc1)C(=O)N[C@H](C)C(N)=O", "target or system": "NGF-differentiated PC-12 neurons", "setting": "80 µM, 24 h", "scale": "reference: untreated", "endpoint": "viability", "value": "99.9%"}
{"SMILES": "O=NN1CC2CC(C1)c1cc3nccnc3cc12", "target or system": "TK6", "setting": "40 µM, 4 h, together with: hamster liver S9", "scale": "reference: vehicle", "endpoint": "relative survival", "value": "122%"}
{"SMILES": "O=[N+]([O-])c1ccc(-c2nn(-c3ccccc3)c3sc(NC(c4ccccc4O)P(=O)(Oc4ccccc4)Oc4ccccc4)nc23)cc1 (stereo not drawn)", "target or system": "BNL mouse liver cells", "assay": "SRB", "setting": "1 µM, 10% fetal bovine serum", "endpoint": "viability", "value": "97.6%"}
{"SMILES": "CCc1ccc(Sc2cc(C(=O)NCCCN3CCCC(C)C3)c3ccccc3n2)cc1 (stereo not drawn)", "target or system": "Vero-E6", "assay": "CellTiter-Glo ATP", "setting": "72 h, retest 8-point duplicates", "scale": "reference: DMSO 0%, hyamine -100%, more negative, more toxic", "endpoint": "maximum response", "value": "-20.1%"}
{"SMILES": "CC(C)C[C@@H](NC(=O)[C@H](N)CCCCN)C(=O)N[C@H](CC(C)C)C(=O)N[C@H](Cc1ccccc1)C(=O)N[C@H](Cc1ccccc1)C(=O)N[C@H](C)C(=O)N[C@H](CCC(=O)O)C(N)=O", "target or system": "NGF-differentiated PC-12 neurons", "setting": "10 µM, 24 h", "scale": "reference: untreated", "endpoint": "viability", "value": "100%"}
{"SMILES": "CCCCN(CCCC)CCCNC(=O)c1cc(-c2ccc(Cl)s2)nc2ccccc12", "target or system": "Vero-E6", "assay": "CellTiter-Glo ATP", "setting": "72 h, second round 5-point", "scale": "reference: DMSO 0%, hyamine -100%, more negative, more toxic", "endpoint": "maximum response", "value": "-10.2%"}
{"SMILES": "COc1ccnc(C(=O)N[C@H]2COC(=O)[C@H](Cc3ccccc3)[C@@H](OC(=O)C(C)C)[C@H](C)OC2=O)c1OCOC(=O)C(C)C", "target or system": "rat lymphocytes", "setting": "in vitro, outcome positive", "endpoint": "chromosomal aberration", "value": "positive"}
{"SMILES": "CC(C)C[C@H](NC(=O)[C@H](C)NC(=O)[C@@H](NC(=O)[C@H](CCCNC(=N)N)NC(=O)[C@H](CC(C)C)NC(=O)[C@H](Cc1c[nH]c2ccccc12)NC(=O)[C@@H]1CCCN1C(=O)[C@@H](N)CCCCN)C(C)C)C(=O)N[C@@H](CS)C(=O)N1CCC[C@H]1C(=O)NCC(=O)O", "target or system": "A549", "assay": "WST-1", "setting": "256 µM, 24 h", "endpoint": "viability", "value": "96.4% and 88.7% and 100%"}
{"SMILES": "CC(C)C[C@@H](NC(=O)[C@H](N)CCCCN)C(=O)N[C@H](CC(C)C)C(=O)N[C@H](Cc1ccccc1)C(=O)N[C@H](Cc1ccccc1)C(N)=O", "target or system": "NGF-differentiated PC-12 neurons", "setting": "80 µM, 24 h", "scale": "reference: untreated", "endpoint": "viability", "value": "99%"}
{"SMILES": "CCCCN(CCCC)CCCNC(=O)c1ccc2nc(N3CCCCC3)sc2c1", "target or system": "Vero-E6", "assay": "CellTiter-Glo ATP", "setting": "concentration not given, 72 h, retest 8-point duplicates", "scale": "reference: DMSO 0%, hyamine -100%, more negative, more toxic", "endpoint": "cytotoxicity efficacy", "value": "0%"}
{"SMILES": "CC(C)C[C@@H](NC(=O)[C@H](N)CCCCN)C(=O)N[C@@H](C(=O)N[C@H](Cc1ccccc1)C(=O)N[C@H](Cc1ccccc1)C(N)=O)C(C)C", "target or system": "NGF-differentiated PC-12 neurons", "setting": "80 µM, 24 h", "scale": "reference: untreated", "endpoint": "viability", "value": "100%"}
{"SMILES": "CC(C)(C)NCc1ccc(Nc2ccnc3cc(Cl)ccc23)cc1O", "target or system": "Vero-E6", "assay": "CellTiter-Glo ATP", "setting": "concentration not given, 72 h, second round 5-point", "scale": "reference: DMSO 0%, hyamine -100%, more negative, more toxic", "endpoint": "cytotoxicity efficacy", "value": "-17.8%"}
{"SMILES": "N#Cc1cnc(Nc2ccnc3ccc(-c4ccc(S(=O)(=O)N5CCOCC5)cc4)cc23)cn1", "target or system": "NIH 3T3", "assay": "cytotoxicity, PrestoBlue", "setting": "96 h, 2% FBS", "endpoint": "TC50", "value": "> 20 µM"}
{"SMILES": "O=c1ccc2ccccc2o1", "target or system": "HepG2", "assay": "item: cellular ATP", "setting": "24 h", "endpoint": "point of departure", "value": "528 µM"}
{"SMILES": "N.N.[Cl][Pt][Cl]", "target or system": "HepaRG", "setting": "at 55% cytotoxicity", "scale": "reference: HepG2", "endpoint": "micronucleus frequency ratio", "value": "5 fold"}
{"SMILES": "CCCCN(C)CCNC(=O)c1cc(-c2ccc(Cl)s2)nc2ccccc12", "target or system": "Vero-E6", "assay": "CellTiter-Glo ATP", "setting": "concentration not given, 72 h, retest 8-point duplicates", "scale": "reference: DMSO 0%, hyamine -100%, more negative, more toxic", "endpoint": "cytotoxicity efficacy", "value": "-55.7%"}
{"SMILES": "CC(C)C[C@@H](N)C(=O)N[C@H](CC(C)C)C(=O)N[C@H](Cc1ccccc1)C(=O)N[C@H](Cc1ccccc1)C(=O)N[C@H](C)C(N)=O", "target or system": "NGF-differentiated PC-12 neurons", "setting": "10 µM, 24 h", "scale": "reference: untreated", "endpoint": "viability", "value": "92.5%"}
{"SMILES": "CC(C)CC(=O)OC[C@H]1O[C@@](C#N)(c2ccc3c(N)ncnn23)[C@H](O)[C@@H]1O", "target or system": "rat hepatocytes", "setting": "5 µM, 15 min", "endpoint": "remaining compound", "value": "0%"}
{"SMILES": "c1ccc(CCNC2CCCc3c2[nH]c2ccccc32)cc1 (stereo not drawn)", "target or system": "A549", "setting": "50 µM, 23 h", "endpoint": "non-viable cells", "value": "13 ± 14.8%"}
{"SMILES": "Cc1ccc2c(NC(C)c3ccccc3)nc(N3CCNCC3)nc2c1 (stereo not drawn)", "target or system": "Vero-E6", "assay": "CellTiter-Glo ATP", "setting": "72 h, second round 5-point", "scale": "reference: DMSO 0%, hyamine -100%, more negative, more toxic", "endpoint": "maximum response", "value": "-9.46%"}
{"SMILES": "C=CC(=O)Nc1cc(Nc2nccc(-c3cn(C)c4ccccc34)n2)c(OC)cc1N(C)CCN(C)C", "target or system": "human coronavirus OC43", "assay": "virus-induced cell killing", "system": "MRC-5", "setting": "screen", "endpoint": "maximum inhibition", "value": "2.93%"}
{"note": "Repeated from above:"}
{"SMILES": "Oc1ccc(C(c2ccc(O)cc2)(C(F)(F)F)C(F)(F)F)cc1", "target or system": "HepG2 spheroids", "assay": "annexin V-FITC/PI flow cytometry", "setting": "0.10 µM, 96 h", "endpoint": "necrotic cells", "value": "52.6 ± 9.63%"}
{"SMILES": "CC(C)C[C@@H](N)C(=O)N[C@H](CC(C)C)C(=O)N[C@H](Cc1ccccc1)C(=O)N[C@H](Cc1ccccc1)C(N)=O", "target or system": "NGF-differentiated PC-12 neurons", "setting": "20 µM, 24 h", "scale": "reference: untreated", "endpoint": "viability", "value": "57.4%"}
{"SMILES": "CN1CCN(c2ccc(OC(F)(F)F)c(Nc3ncc4c(n3)-c3c(c(C(N)=O)nn3CCO)CC4)c2)CC1", "target or system": "human coronavirus OC43", "assay": "virus-induced cell killing", "system": "MRC-5", "setting": "maximum over 10 doses", "endpoint": "maximum inhibition", "value": "0%"}
